Measurements from different studies.
Lines come from different studies, so protocols differ. Several values in a cell are separate wells, animals, samples, runs or records. Numbers after ± are the reported error.
HLA class I histocompatibility antigen, A alpha chain allele A*02:01: HLA class I histocompatibility antigen, A alpha chain, allele A*02:01 (Homo sapiens, UniProt P04439)
Chain of UniProt Q64663 (whole entry, unmodified, looked up): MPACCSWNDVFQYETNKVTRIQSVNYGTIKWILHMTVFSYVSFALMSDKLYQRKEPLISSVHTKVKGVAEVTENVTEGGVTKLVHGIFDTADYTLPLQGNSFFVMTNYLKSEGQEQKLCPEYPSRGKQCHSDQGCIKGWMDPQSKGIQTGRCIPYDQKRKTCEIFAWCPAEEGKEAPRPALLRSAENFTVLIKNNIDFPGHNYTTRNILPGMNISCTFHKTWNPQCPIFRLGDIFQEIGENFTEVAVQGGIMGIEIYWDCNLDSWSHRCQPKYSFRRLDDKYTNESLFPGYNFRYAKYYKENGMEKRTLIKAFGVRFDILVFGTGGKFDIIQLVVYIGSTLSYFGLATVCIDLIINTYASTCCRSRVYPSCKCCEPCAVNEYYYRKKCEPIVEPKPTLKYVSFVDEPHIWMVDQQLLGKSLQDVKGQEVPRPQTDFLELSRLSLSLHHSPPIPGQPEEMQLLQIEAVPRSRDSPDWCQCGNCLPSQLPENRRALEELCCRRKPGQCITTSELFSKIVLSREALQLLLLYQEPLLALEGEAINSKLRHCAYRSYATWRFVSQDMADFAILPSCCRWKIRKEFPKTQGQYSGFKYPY
Chain of UniProt P48067 (whole entry, looked up): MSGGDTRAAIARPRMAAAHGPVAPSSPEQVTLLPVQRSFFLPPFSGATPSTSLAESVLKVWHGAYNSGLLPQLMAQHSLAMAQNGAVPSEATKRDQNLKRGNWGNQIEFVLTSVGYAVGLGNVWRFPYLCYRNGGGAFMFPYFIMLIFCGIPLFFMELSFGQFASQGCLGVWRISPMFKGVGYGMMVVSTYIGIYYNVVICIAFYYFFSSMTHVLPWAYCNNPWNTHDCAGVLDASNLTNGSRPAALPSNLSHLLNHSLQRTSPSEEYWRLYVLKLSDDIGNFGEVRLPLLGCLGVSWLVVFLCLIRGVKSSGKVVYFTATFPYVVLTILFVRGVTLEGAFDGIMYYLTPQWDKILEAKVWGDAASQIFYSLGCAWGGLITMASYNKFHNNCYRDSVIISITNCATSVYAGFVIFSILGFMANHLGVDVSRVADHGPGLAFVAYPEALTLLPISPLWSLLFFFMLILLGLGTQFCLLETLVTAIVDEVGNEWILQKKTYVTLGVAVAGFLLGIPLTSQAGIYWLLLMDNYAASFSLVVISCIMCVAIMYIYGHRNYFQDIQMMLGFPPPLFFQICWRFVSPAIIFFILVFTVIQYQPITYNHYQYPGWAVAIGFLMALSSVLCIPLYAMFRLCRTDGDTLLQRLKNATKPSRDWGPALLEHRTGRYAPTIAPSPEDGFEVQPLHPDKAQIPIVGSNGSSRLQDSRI

ILEAAKSIAAATSALVKAASAAQRE
mean rupture force (vinculin head domain Vd1; complex rupture, AFM single-molecule force spectroscopy; peptide; single traces, C-terminal pulling, 800 nm/s): 49.2 pN

human retinal dehydrogenase 1
co-IP enrichment (co-immunoprecipitation; human RBC cytosol; unit not given, with: Band 3 peptide 1-56 bait; relative to: negative control): 0

colistin
MIC (Pseudomonas aeruginosa; clinical isolate RKI 462/13): ≤ 1 µg/mL

human serum albumin
co-IP enrichment (co-immunoprecipitation; human RBC membrane; DSSO crosslinker, unit not given, with: Band 3 peptide 1-56 bait; relative to: negative control): 17.9

MTVCNASQRQAHAQATAVSL
selectivity ratio (PC-9; phage binding; peptide; relative to: targeting over control phage): 0.56 ± 0.29

SVWLRKETRV
binding intensity (human SCRIB PDZ3-4 tandem (MBP fusion); automated holdup; peptide, purified PDZ protein; concentration not given, unit not given; relative to: biotin control resin, higher = stronger binding): 0.632

cotadutide
metabolite level (lipidomics, item: hepatic total Phosphatidylcholines; ob/ob mice on AMLN diet, NASH model, liver; dose not given): 0.86 ± 0.03 scaled intensity

caspofungin
magnesium (adult ICU patients, mITT, serum; dose not given, day 14): 0.7 mmol/L

GSGAGIATEV
binding intensity (human MAGI1-2/6 PDZ construct (MBP fusion); automated holdup; peptide, purified PDZ protein; concentration not given, unit not given; relative to: biotin control resin, higher = stronger binding): 0.0401

BzATP
normalized current (P2X purinoceptor 7 (P2rx7, Rattus norvegicus, UniProt Q64663, I214A); ion current, agonist, two-electrode voltage clamp; Xenopus oocytes; 1.2 µM): 0.182 and 0.176 and 0.129

methyl-β-cyclodextrin
glycine uptake rate (SLC6A9 (Homo sapiens, UniProt P48067); transport activity, [3H]glycine uptake; 3.5 mg/mL, 1 min, with: glycine 37.5 µM; higher = more transport): 12.2 a.u. and 17.1 a.u. and 14.8 a.u. and 15 a.u.

ACEQNPIYWARYADWLFTTPLLLLDLALLVDADEGT
mean fluorescence intensity (ex vivo fluorescence imaging; peptide, BALB/c mice, 4T1 tumour-bearing, kidney; intravenous, 5 nmol, 4 h post-injection; higher = more uptake): 1100 ± 254 a.u.

ALFQWVSQA
reporter activation (Jurkat T cells expressing 1G4 TCR; NFAT-eGFP reporter, fluorescence microscopy; peptide; concentration not given, HLA-A*02:01 NY-ESO system): 2.74%

TCP-1 alpha
co-IP enrichment (co-immunoprecipitation; human RBC membrane; unit not given, with: Band 3 peptide 1-56 bait; relative to: negative control): 0

STVQLIMQL
half-life of peptide-HLA complex (HLA class I histocompatibility antigen, A alpha chain allele A*02:01; complex stability, off-rate; peptide; 37 °C): 1.1 h

Polymyxin B
membrane depolarisation (Staphylococcus aureus; DiSC3(5) fluorescence; concentration not given, 45 min; higher = more depolarisation): 746 a.u. and 541 a.u. and 587 a.u.

GEMVGQARILAQATSDLVNAIKDA
rupture force FWHM upper side (vinculin head domain Vd1; complex rupture, AFM single-molecule force spectroscopy; peptide; traces traces, C-terminal pulling, 800 nm/s): 26 pN

Peginesatide
mRNA fold induction (UT7/EPO; RT-qPCR, item: CD80; concentration not given, 90 min; relative to: vehicle): 2.3 fold

adenosylhomocysteinase
co-IP enrichment (co-immunoprecipitation; human RBC membrane; DMTMM crosslinker, unit not given, with: Band 3 peptide 1-56 bait; relative to: negative control): 13.8

FNA / CGLSGLGVA-NH2 ([18F]FNA-labelled, C-amide)
tissue uptake (gamma counting; peptide, healthy mice, femur (bone and marrow); 60 min): 0.38 %ID/g

ACEEQNPWARYLEWLFPTETLLLEL
mean fluorescence intensity (ex vivo fluorescence imaging; peptide, BALB/c mice, 4T1 tumour-bearing, kidney; intravenous, 5 nmol, 48 h post-injection; higher = more uptake): 690 ± 260 a.u.

milbemycin oxime
OD600 (Saccharomyces cerevisiae; cell growth; Pdr5 deleted, Cdr1 overexpressed; 2^-4.381 µg/mL, with: fluconazole 10 µg/mL): 0.039 and 0.041

SEKHFRETEV
binding intensity (human MAGI1-2/6 PDZ construct (MBP fusion); automated holdup; peptide, crude extract; concentration not given, corrected by standard peak, unit not given; relative to: biotin control resin, higher = stronger binding): 0.555

hemoglobin beta
co-IP enrichment (co-immunoprecipitation; human RBC membrane; unit not given, with: Band 3 peptide 1-56 bait; relative to: negative control): 1.08

ALLQWITQV
reporter activation (Jurkat T cells expressing 1G4 TCR; NFAT-eGFP reporter, fluorescence microscopy; peptide; concentration not given, HLA-A*02:01 NY-ESO system): 21.6%

maraviroc
total GSK-3α level (GSK-3α; mice, NSG hu-PBL, HIV-infected, brain; ip, 120 mg/kg twice daily, 3 weeks post-infection, normalized to actin): no effect

GSGAGIESNV
binding intensity (human MAGI1-2/6 PDZ construct (MBP fusion); automated holdup; peptide, crude extract; concentration not given, uncorrected, unit not given; relative to: biotin control resin, higher = stronger binding): 0.137

GLGQWISQA
reporter activation (Jurkat T cells expressing 1G4 TCR; NFAT-eGFP reporter, fluorescence microscopy; peptide; concentration not given, HLA-A*02:01 NY-ESO system): 0.00728%

QDEKVKESYV
normalised SPR binding response (human SCRIB PDZ3-4 tandem (MBP fusion); surface plasmon resonance; peptide; concentration not given; higher = stronger binding): 60.2 normalised RU

GLFQWTARA
reporter activation (Jurkat T cells expressing 1G4 TCR; NFAT-eGFP reporter, fluorescence microscopy; peptide; concentration not given, HLA-A*02:01 NY-ESO system): 0.0123%

Teicoplanin
protein binding (ultrafiltration, UPLC-MS/MS; pooled human serum, spiked; 25 mg/L, 37 °C): 83.2%

CAGATACTCT
log2 fold change (Salmonella enterica Typhimurium; RNA-seq, item: pagN; peptide, SL1344; 5 µM, 15 min; relative to: water): 2.59

human delta-aminolevulinic acid dehydratase
co-IP enrichment (co-immunoprecipitation; human RBC membrane; DSSO crosslinker, unit not given, with: Band 3 peptide 1-56 bait; relative to: negative control): 28.5

KPGKGSETVV
binding intensity (human SCRIB PDZ3-4 tandem (MBP fusion); automated holdup; peptide, purified PDZ protein; concentration not given, unit not given; relative to: biotin control resin, higher = stronger binding): 0.13

human clusterin
co-IP enrichment (co-immunoprecipitation; human plasma; no crosslinker, unit not given, with: Band 3 peptide 1-56 bait; relative to: negative control): 432000

11-deoxycorticosterone
Kd (CYP11B2 (human); substrate binding, stopped-flow global kinetic fitting; purified enzyme; model, 4-state CS, linear, with: 40-fold excess adrenodoxin): 5.2 µM

ALLQWVTQV
reporter activation (Jurkat T cells expressing 1G4 TCR; NFAT-eGFP reporter, flow cytometry; peptide; concentration not given, HLA-A*02:01 NY-ESO system): 77.5%

TASPAKETSF
binding intensity (human MAGI1-3/6 PDZ construct (MBP fusion); automated holdup; peptide, purified PDZ protein; concentration not given, unit not given; relative to: biotin control resin, higher = stronger binding): -0.201

IMQLMPFGCLL
binding score (HLA class I histocompatibility antigen, A alpha chain allele A*02:01; conformational ELISA; peptide; concentration not given; relative to: positive control peptide, direction not given): 76%

GLLEWTDRV
reporter activation (Jurkat T cells expressing 1G4 TCR; NFAT-eGFP reporter, fluorescence microscopy; peptide; concentration not given, HLA-A*02:01 NY-ESO system): 0.00918%

triosephosphate isomerase
co-IP enrichment (co-immunoprecipitation; human plasma; unit not given, with: Band 3 peptide 1-56 bait; relative to: negative control): 0.305

GLGQWIAQA
reporter activation (Jurkat T cells expressing 1G4 TCR; NFAT-eGFP reporter, flow cytometry; peptide; concentration not given, HLA-A*02:01 NY-ESO system): 0.22%

GSGAGKETEC
binding intensity (human MAGI1-3/6 PDZ construct (MBP fusion); automated holdup; peptide, crude extract; concentration not given, corrected by standard peak, unit not given; relative to: biotin control resin, higher = stronger binding): 0.0432

epoetin alfa
mRNA level (UT7/EPO; microarray, item: THBS1 mRNA (probe set 235086_at); 5 U/mL, 90 min; relative to: vehicle): 2.8 fold

GLGQWVPQV
reporter activation (Jurkat T cells expressing 1G4 TCR; NFAT-eGFP reporter, fluorescence microscopy; peptide; concentration not given, HLA-A*02:01 NY-ESO system): 0.0041%

Excerpt of the above:
GEMVGQARILAQATSDLVNAIKDA
rupture force FWHM upper side (vinculin head domain Vd1; complex rupture, AFM single-molecule force spectroscopy; peptide; traces traces, C-terminal pulling, 800 nm/s): 26 pN

Peginesatide
mRNA fold induction (UT7/EPO; RT-qPCR, item: CD80; concentration not given, 90 min; relative to: vehicle): 2.3 fold
